Results gathered from unrelated publications.
Every numbered part comes from another study and shows a few of its results, in no order.

Sample 1
Target: Interferon regulatory factor 3, full length, phosphomimetic (IRF3, Homo sapiens, UniProt Q14653, residues 1-427, S386D/S396D/S398D/S402D/T404D/S405D)
Technique: protein-binding microarray
Form: double-stranded DNA, one strand shown
Medium: in vitro
Concentration: 2540 nM top
Setting: 60-bp whole probe
Together with: salmon DNA 0.4 mg/ml
Relative to: random background probes
Reading: higher = stronger binding
Constant ends, left off below: GCCTAGCAC … GTCTTGATTCGCTTGACGCTGCTG
Residues (chain): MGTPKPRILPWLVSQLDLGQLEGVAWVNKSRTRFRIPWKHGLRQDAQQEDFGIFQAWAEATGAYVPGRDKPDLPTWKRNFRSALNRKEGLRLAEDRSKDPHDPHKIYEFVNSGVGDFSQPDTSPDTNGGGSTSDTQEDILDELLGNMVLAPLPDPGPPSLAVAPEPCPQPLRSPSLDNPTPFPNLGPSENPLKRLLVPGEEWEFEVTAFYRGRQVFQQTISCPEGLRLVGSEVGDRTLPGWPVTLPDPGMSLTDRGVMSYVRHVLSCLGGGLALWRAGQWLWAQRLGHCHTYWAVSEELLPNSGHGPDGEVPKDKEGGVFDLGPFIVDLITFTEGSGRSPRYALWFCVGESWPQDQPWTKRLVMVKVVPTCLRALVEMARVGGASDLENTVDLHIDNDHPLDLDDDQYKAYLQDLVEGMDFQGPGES
Strand | fitted relative affinity
TTCGATCTCAGTCTCGATTAGTGCTAG | 1.18 z-score
TTAGGTATCGTTATCCTTTAGTGCTAG | 3.43 z-score
TTGGATCTCAGTATCGATTAGTGCTAG | 0.661 z-score
GACGGTTTCGGGACTGGGGACGTGCTA | 4.5 z-score
TTCGGTATCGGACTGGGTTAGTGCTAG | 2.1 z-score
GACGGTATCGGGTTTCGGGACGTGCTA | 3.04 z-score
GACGATATCGGTTATCGAGACGTGCTA | 1.11 z-score
TATGGTTTTTTTTTAATTGAGTGCTAG | 1.15 z-score
TTAGAACTGAGGTTTCGATTAGTGCTA | 2.23 z-score
ATAGATTTCAGTCTCGATTAGTGCTAG | 2.55 z-score
TTAGAACTGAGACTGCATTAGTGCTAG | -0.468 z-score
TCATATTTAAGGCTAGGACTGTGCTAG | 0.411 z-score
TTTGAGCTCTGTCTGGGATGGTGCTAG | -0.722 z-score
TTAGATTTCGGCTATCGATTAGTGCTA | 0.621 z-score
GACGATTTCGGGTTTCGTGACGTGCTA | 2.53 z-score
GACGAACTGAGTTACGAGACGTGCTAG | -0.124 z-score
TTAGGTTTCGGTTCCAGTTAGTGCTAG | 9.97 z-score
TTAGGTTTCCTACTGCTTGAGTGCTAG | 4.91 z-score
GACGGTTTCGGGTATCGGGGCGTGCTA | 4.48 z-score

Sample 2
Target: Sox, HMG box (Pigoraptor chileana)
Technique: Spec-seq
Form: double-stranded DNA, one strand shown
Medium: in vitro
Concentration: not given
Setting: whole probe, mean of replicates
Relative to: not given
Reading: lower = stronger binding
Constant ends, left off below: GAGTCGTCTCGTCAGCAC … CCGTAGAGCACTCAGGTC
Target sequence (chain): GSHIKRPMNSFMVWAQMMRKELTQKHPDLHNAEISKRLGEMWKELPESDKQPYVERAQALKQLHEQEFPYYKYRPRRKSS
Strand | relative binding energy [ln ratio]
CATAGTA | -0.99
CATAGAG | -0.482
GGGGGTT | 1.45
CATCACG | -0.0721
TCGGGTT | 1.15
ATACGTT | -0.0572
CATATCC | 0.505
CATCTTA | 0.314
CATACGG | 0.00931
CATGAGC | 0.399
CGATGTT | 0.187
TTGGGTT | 0.603
CATCCGT | 0.862
CATCGAC | 0.446
CATTGCA | 0.0499
CATGGGC | 0.465
TGAAGTT | 0.683
CATGCCA | 0.662
CATGCAA | 0.457
ACGAGTT | 0.601
CATGCGA | 0.672
AGCCGTT | 0.415
TATCGTT | -0.375
CATTCGG | 0.673
CATTTGT | -1.8

Sample 3
Target: RNA binding protein fox-1 homolog 2, RRM domain, GST-SBP tag (RBFOX2, Homo sapiens, UniProt O43251-10, residues 100-194)
Technique: RNA Bind-n-Seq
Form: RNA
Medium: in vitro
Concentration: 365 nM
Setting: natural RNA segment, single round, ends assumed
Relative to: no-protein control
Reading: higher = stronger binding
Constant ends, left off below: GGGAGUUCUACAGUCCGACGAUC … UGGAAUUCUCGGGUGCCAA
Residues (chain): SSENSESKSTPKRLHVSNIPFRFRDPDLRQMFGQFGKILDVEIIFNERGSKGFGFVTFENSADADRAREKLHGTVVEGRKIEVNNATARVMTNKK
Strand | RBNS enrichment (R)
CUUCUAGAGCUGAGAAGCAGGGUCAAAGCACAAUACUGGGCAAUUCAGAGCAUGGUUAGAAGAGGAAAGGGGAGUCUCAAAGCUGGAGAGUUUACCAACAAAUAUUGACU | 9.37
UUUGCGUUAAUGAAGACUACACAGAAAACCUUUCUAGGGAUUUGUGUGGAUCAGAUACAUACUUGGCAAAUUUUUGAGUUUUACAUUCUUACAGAAAAGUCCAUUUAAAA | 0.584
AGCCCACCACAGAGGCCACAGGCAGGCCCCCACUUCAGGCCCAAGGCCUGGGGCGGGGGGAACAGUCACUGGGUCUCAGAUUCUGAGACUGUUGUUUAGCUUACCUUUCU | 0.135
CUAGUUAACAUGGGGAAAGAUGACAACAUUGUAUGUAGUGUUGAACCUGAAGACAUCCUACAAUGAUUUCCCACACUCUAUUUUUCCUUAUGUUUGCUUAAAUAGCAAAA | 0.27
CAAAAACAGAGAGCAAGCCCGAGGAGGAGACUGGUGACUUUCCUGUGUCCUCAGCUAACAAAGGCAGGACUCCAGCUGGACUUCUGCAGCUUCCUUCCGAGUCUCCCUAG | 0.172
AGUAGGAACAUGCUGAUGGGACACCAACAAAGCACAGGGUGCUUUUAAAAUAAAGCCCUGGGCCAGAAAGGCAAUGUGGCUAAAGAAUGUAUUGCACUAUACUUCUAAUG | 0.864
UUCAAGCCUUAGGAACUGGCAGACGGAACUGUUUCCAUCCACCAACCCCCAGGGUAUCAACCACUUUUUUGCAGCUUUUACGGUUCAAACCUAUCAAACUCUACAAAUAA | 0.238
UAGUGACAUUAGGCAGAAAUGGCCAGUCAAACACAUAGCAGUGUUCCAUAGACUUGGUAGAAUGGUCUAUUUUUAAUACCUGUUAUGAUUUUGUUUUUUAGGAAAUAUAC | 0.417

Sample 4
Target: Sal-like protein 4, full length isoform A (SALL4, Homo sapiens, UniProt Q9UJQ4, residues 1-1053)
Sequence of UniProt Q9UJQ4 (whole entry, looked up): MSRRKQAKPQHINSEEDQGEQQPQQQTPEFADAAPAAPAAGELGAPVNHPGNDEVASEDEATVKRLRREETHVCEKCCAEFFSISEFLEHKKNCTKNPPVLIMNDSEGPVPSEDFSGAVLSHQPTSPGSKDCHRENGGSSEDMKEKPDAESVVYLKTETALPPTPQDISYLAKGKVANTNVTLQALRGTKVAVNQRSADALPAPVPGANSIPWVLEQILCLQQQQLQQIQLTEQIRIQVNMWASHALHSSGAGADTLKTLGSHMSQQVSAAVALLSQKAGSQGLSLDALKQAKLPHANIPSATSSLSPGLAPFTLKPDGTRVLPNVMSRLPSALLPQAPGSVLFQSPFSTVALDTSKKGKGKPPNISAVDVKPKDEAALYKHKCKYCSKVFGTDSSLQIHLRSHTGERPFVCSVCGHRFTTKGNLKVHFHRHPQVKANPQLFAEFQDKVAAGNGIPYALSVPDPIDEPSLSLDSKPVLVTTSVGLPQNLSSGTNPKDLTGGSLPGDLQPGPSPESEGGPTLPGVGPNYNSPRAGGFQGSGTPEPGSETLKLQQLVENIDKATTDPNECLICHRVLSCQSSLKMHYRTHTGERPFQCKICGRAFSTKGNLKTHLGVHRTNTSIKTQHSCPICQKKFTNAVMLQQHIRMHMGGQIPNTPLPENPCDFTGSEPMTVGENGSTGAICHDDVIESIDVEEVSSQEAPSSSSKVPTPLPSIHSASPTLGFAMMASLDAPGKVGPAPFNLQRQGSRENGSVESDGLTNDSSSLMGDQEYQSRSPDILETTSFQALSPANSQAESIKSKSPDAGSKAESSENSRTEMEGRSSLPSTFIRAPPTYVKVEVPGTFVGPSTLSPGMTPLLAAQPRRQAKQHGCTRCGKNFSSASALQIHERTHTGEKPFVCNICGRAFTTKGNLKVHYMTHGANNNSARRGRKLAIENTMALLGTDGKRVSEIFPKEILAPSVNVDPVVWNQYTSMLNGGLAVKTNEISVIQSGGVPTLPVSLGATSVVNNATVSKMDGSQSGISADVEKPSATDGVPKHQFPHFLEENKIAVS
Technique: universal PBM
Form: double-stranded DNA, one strand shown
Medium: in vitro
Concentration: 600 nM
Setting: 8-mer, flanks averaged, mean of replicates
Reading: higher = stronger binding
Strand | E-score
GACTGGTA | -0.11
AAGCGCCA | -0.141
GGGGCTGA | -0.275
ATTAAGGG | 0.0641
AATGACTG | 0.216
TACCTTAA | 0.0815
AGCGAGCC | -0.236
GCACATTA | 0.19
GGCACGTA | -0.0828
GTTCAGGA | -0.0398
GACTTGGC | -0.153
ATGTTAGA | 0.153
AAATTGGG | 0.166
AGTTGACA | 0.137
CGAGCAAG | -0.311
GGAGAACA | 0.00413
GCATCGAA | 0.0288
AATTAGAC | 0.31
CATATTCC | 0.238
AATTAATA | 0.474
TAGGTCGA | -0.032
AAGTACTA | 0.218
GGTTTCTA | -0.0249

Excerpt of the above (sample 2):
Strand | relative binding energy [ln ratio]
CATACGG | 0.00931
CATTGCA | 0.0499
CGATGTT | 0.187
CATCTTA | 0.314
CATTCGG | 0.673
CATATCC | 0.505
CATCCGT | 0.862
ACGAGTT | 0.601
